Published values gathered from unrelated publications.
Each line is one published result; not all experiments were run side by side. Numbers after ± are the reported error.

Structure (SMILES) | organism | test | test system | setting | EC50 [nM]
Nc1ncnc2c1c(Cl)cn2[C@@H]1O[C@H](CO)C[C@H]1O | Trypanosoma evansi | parasite growth, resazurin | AnTat 3.3 | 48 h plus 24 h resazurin | 1.8 ± 0.2
CC(C)Sc1ccc(SC(C)C)c(O)c(=O)c1O | Hepatitis B virus | viral replication, inhibitor | HepDES19 | – | 12700
CC1(C)CC[C@]2(CO)CC[C@]3(C)C(=CC[C@@H]4[C@@]5(C)CCCNC(C)(C)[C@@H]5CC[C@]43C)[C@@H]2C1 | Human alphaherpesvirus 1 | cytopathic effect | HFF, E-377 | – | > 1200
N#C[C@]1(CO)O[C@@H](n2cnc3c(N)nc(N)nc32)C[C@@H]1O | Hepatitis B virus | viral replication, inhibitor, qPCR | HepG2 2.2.15 | 14 days | 0.5
CCCCSc1ccc(SCCCC)c(O)c(=O)c1O | Hepatitis B virus | viral replication, inhibitor | HepDES19 | – | 12000
Nc1ncnc2c1c(C(F)(F)F)cn2[C@@H]1O[C@H](CO)[C@@H](O)[C@H]1O | Trypanosoma evansi | parasite growth, resazurin | AnTat 3.3 | 48 h plus 24 h resazurin | 670 ± 110
CCCCCCS(=O)(=O)c1cccc(O)c(=O)c1O | Hepatitis B virus | viral replication, inhibitor | HepDES19 | – | 6600
Cc1cc(C#N)cc(C)c1Oc1nc(NC2CCN(Cc3ccc(S(C)(=O)=O)cc3)CC2)nc2cccnc12 | HIV-1 | viral replication, luciferase reporter | TZM-bl, NL4-3 wild type | – | 2.4 ± 0.83
Nc1ncnc2c1c(-c1ccccn1)cn2[C@@H]1O[C@H](CO)[C@@H](O)[C@H]1O | Trypanosoma evansi | parasite growth, resazurin | AnTat 3.3 | 48 h plus 24 h resazurin | 40 ± 10
O=c1c(O)cccc(Sc2cccc3ccccc23)c1O | Hepatitis B virus | viral replication, inhibitor | HepDES19 | – | > 50000
C=C(C)[C@@H]1CCC=C2CC[C@]3(C)[C@H](CC[C@@H]4[C@@]5(C)CCCNC(C)(C)[C@@H]5CC[C@]43C)[C@H]21 | Human alphaherpesvirus 1 | cytopathic effect | HFF, E-377 | – | > 6000
O=c1c(O)cccc(S(=O)(=O)Cc2ccccc2)c1O | Hepatitis B virus | viral replication, inhibitor | HepDES19 | – | 2800
CCc1c(CC2CCCCC2)nc(SCC(=O)c2ccccc2)[nH]c1=O | Human immunodeficiency virus 1 | viral replication | TZM-bl, Ba-L | – | 37.7 ± 23.1
Nc1ncnc2c1c(I)cn2[C@@H]1O[C@H](CO)C[C@H]1O | Trypanosoma evansi | parasite growth, resazurin | AnTat 3.3 | 48 h plus 24 h resazurin | 4 ± 1
C=C(C)[C@@H]1CC[C@]2(C(N)=O)CC[C@]3(C)[C@H](CC[C@@H]4[C@@]5(C)CCCNC(C)(C)[C@@H]5CC[C@]43C)[C@@H]12 | Human alphaherpesvirus 1 | cytopathic effect | HFF, E-377 | – | > 6000
CC(C)S(=O)(=O)c1ccc(S(=O)(=O)C(C)C)c(O)c(=O)c1O | Hepatitis B virus | viral replication, inhibitor | HepDES19 | – | > 50000
Nc1ncnc2c1ccn2[C@@H]1O[C@H](CO)C[C@H]1O | Trypanosoma evansi | parasite growth, resazurin | AnTat 3.3 | 48 h plus 24 h resazurin | 17 ± 2
Cc1cc(C#N)cc(C)c1Oc1nc(NC2CCN(Cc3ccc(S(=O)(=O)NC4CC4)cc3)CC2)nc2ccccc12 | HIV-1 | viral replication, luciferase reporter | TZM-bl, NL4-3 wild type | – | 13.3 ± 3.62
CC[C@H](C)[C@H](NC(=O)[C@@H](C)NC)C(=O)N1CC[C@@H]2Oc3ccc(OC)c(c3)/C=C\NC(=O)[C@H](C(C)C)NC(=O)[C@H]21 | porcine epidemic diarrhea virus | viral cytopathic effect | Vero cells | 72 h | 13400 ± 1130
O=c1c(O)cccc(SCc2ccccc2)c1O | Hepatitis B virus | viral replication, inhibitor | HepDES19 | – | 25000
C=C1[C@@H](n2cnc3c(=O)[nH]c(N)nc32)C[C@H](O)[C@@]1(C#N)CO | Hepatitis B virus | viral replication, inhibitor, qPCR | HepG2 2.2.15 | 14 days | 3.5
Cc1cc(C#N)cc(C)c1Oc1nc(NC2CCN(Cc3ccccc3Br)CC2)nc2ccccc12 | HIV-1 | viral replication, luciferase reporter | TZM-bl, NL4-3 wild type | – | 33.9 ± 8.43
C#Cc1cn([C@@H]2O[C@H](CO)C[C@H]2O)c2ncnc(N)c12 | Trypanosoma evansi | parasite growth, resazurin | AnTat 3.3 | 48 h plus 24 h resazurin | 8 ± 2
COc1ccc(S(=O)(=O)NCc2c[nH]nc2-c2cccs2)cc1 | Plasmodium falciparum | liver stage multiplication | primary human hepatocytes, NF54 sporozoites | sporozoites preincubated with compound | 182
CCCCS(=O)(=O)c1cccc(O)c(=O)c1O | Hepatitis B virus | viral replication, inhibitor | HepDES19 | – | 1900

For quick reference, copied from above:
Structure (SMILES) | organism | test | test system | setting | EC50 [nM]
CCCCCCS(=O)(=O)c1cccc(O)c(=O)c1O | Hepatitis B virus | viral replication, inhibitor | HepDES19 | – | 6600
